# Measured values pooled from the literature.
# Protocols differ between the studies behind these lines. ± marks the error that the study gave.
SMILES,test,test system,setting,half-life [min]
C#Cc1c(F)ccc2cc(O)cc(-c3ncc4c(N5CC6CCC(C5)N6C(=O)OC(C)OC(=O)C(C)C)nc(OC[C@@]56CCCN5C[C@H](F)C6)nc4c3F)c12 (stereo partly drawn),metabolic stability,"mouse, liver microsomes","1 µM, pH 7.4",0.68
O=C(O)/C=C\c1ccc2occc2c1O[C@@H]1O[C@H](CO)[C@@H](O)[C@H](O)[C@H]1O,,"rat, plasma","oral, 217 mg/kg Pc extract, dosed as Pc extract",149 ± 52.2
c1ccc([C@H]2CCC[C@@]3(C2)OOC2(O3)C3CC4CC(C3)CC2C4)c(OCCN2CCOCC2)c1 (mixture of isomers),metabolic stability,"human, liver microsomes",,4.9
C#Cc1c(F)ccc2cc(O)cc(-c3ncc4c(N5CC6CCC(C5)N6C(=O)OC(C)OC(C)=O)nc(OC[C@@]56CCCN5C[C@H](F)C6)nc4c3F)c12 (stereo partly drawn),metabolic stability,"mouse, liver microsomes","1 µM, pH 7.4",0.56
CSCC[C@@H]1NC(=O)[C@H](C(C)C)NC(=O)[C@H](CCCNC(=N)N)NC(=O)[C@@H]2CCCN2C(=O)CNC(=O)[C@@H](NC(=O)CNC(=O)[C@H](CO)NC(=O)CNC(=O)[C@H](CO)NC(=S)Nc2ccc(C[C@H]3CN(CC(=O)O)CCN(CC(=O)O)CCN3CC(=O)O)cc2)CSSC[C@@H](C(N)=O)NC(=O)[C@@H]2CCCN2C(=O)CNC(=O)[C@H](CCC(=O)O)NC(=O)[C@H](CC(=O)O)NC(=O)[C@H](CC(=O)O)NC(=O)CNC(=O)[C@H](CC(C)C)NC(=O)[C@H](Cc2c[nH]cn2)NC(=O)[C@H](CC(C)C)NC(=O)CNC(=O)[C@H](Cc2c[nH]cn2)NC1=O [copper-64 labelled],dynamic PET,"CD rat, myocardial infarction model, remote myocardium","intravenous, 18.5 MBq, 15 to 60 min",24.3 ± 2.4
CCN1CC2(COC)C(O)CC(OC)C34C5CC6(O)C(OC)C(O)C(O)(C5C6OC(=O)c5ccccc5)C(C(OC)C23)C14 (stereo not drawn),,"Sprague-Dawley rat, plasma","oral, dose not given, with H in PCW extract",244 ± 55.5
C#CCCCNC(=O)CC(Cc1ccc(F)cc1)NC(=O)C(Cc1ccc(Cl)cc1Cl)NC(=O)C(N)Cc1ccccc1C#N (stereo not drawn),metabolic stability,"CD-1 mouse, liver microsomes",1 µM,11
COCC12CCC(OC)C34C5CC6(O)C(OC)C(O)C(O)(C5C6OC(=O)c5ccccc5)C(C(OC)C13)C4N(C)C2 (stereo not drawn),,"Sprague-Dawley rat, plasma","oral, dose not given, with NADES in PCW extract",501 ± 148
N#Cc1ccccc1CC(N)C(=O)NC(Cc1ccc(Cl)cc1Cl)C(=O)NC(CC(=O)NCCCc1cccnc1)Cc1ccc(F)cc1 (stereo not drawn),metabolic stability,"CD-1 mouse, liver microsomes",1 µM,2.5
CSCC[C@@H]1NC(=O)[C@H](C(C)C)NC(=O)[C@H](CCCNC(=N)N)NC(=O)CNC(=O)[C@@H]2CCCN2C(=O)[C@@H](NC(=O)CNC(=O)[C@H](CO)NC(=O)CNC(=O)[C@H](CO)NC(=S)Nc2ccc(C[C@H]3CN(CC(=O)O)CCN(CC(=O)O)CCN3CC(=O)O)cc2)CSSC[C@@H](C(N)=O)NC(=O)[C@@H]2CCCN2C(=O)CNC(=O)[C@H](CCC(=O)O)NC(=O)[C@H](CC(=O)O)NC(=O)[C@H](CC(=O)O)NC(=O)CNC(=O)[C@H](CC(C)C)NC(=O)[C@H](Cc2c[nH]cn2)NC(=O)[C@H](CC(C)C)NC(=O)CNC(=O)[C@H](Cc2c[nH]cn2)NC1=O [copper-64 labelled],dynamic PET,"CD rat, myocardial infarction model, remote myocardium","intravenous, 18.5 MBq, 15 to 60 min",24 ± 8.4
CNC(=O)C[C@H](Cc1ccc(F)cc1)NC(=O)[C@@H](Cc1ccc(Cl)cc1Cl)NC(=O)[C@H](N)Cc1ccccc1C#N,metabolic stability,"human, liver microsomes",1 µM,1
CCN(CC)CCOc1ccc(-c2nnn(Cc3ccc(OC)cc3)c2N)cc1,metabolic stability,"mouse, plasma",,> 373
